Experimental data from different studies.
Parts stem from different laboratories: compare values within a part only. Substitutions count along the parent as printed.

Set 1
Target: CCND1, cyclin fold, Cln2 fusion (human)
Method: yeast growth competition, sequencing
Sample: yeast
Notes: weak parent motif
Reference: not given
Direction: higher = stronger binding
Starting sequence: MASTL docking peptide (human); PMIAKNLMCELDE
Variant	normalised enrichment score
K5I	0.35
L7C	0.116
L7H	-0.781
N6R	-0.15
M2N	0.0606
M8Q	0.283

Set 2
Target: Interferon regulatory factor 5, full length, phosphomimetic (IRF5, Homo sapiens, UniProt Q13568-2, residues 1-514, K96S/S451D/S453D/S456D/S462D)
Method: protein-binding microarray
Form: double-stranded DNA, one strand shown
Sample: in vitro
Tested at: 250 nM
Notes: 60-bp whole probe
Together with: salmon DNA 0.4 mg/ml
Reference: random background probes
Direction: higher = stronger binding
Constant ends, left off below: GCCTAGCAC … GTCTTGATTCGCTTGACGCTGCTG
Sequence	log fluorescence [z-score]
TCACATGTCTGTGTCACACTGTGCTAG	-0.0402
TTAGGACTGGGTCTCGGTCAGTGCTAG	-0.227
GACGATATCAGTTTCGAGACGTGCTAG	6.74
GACGGTATCGGCCTGGGGACGTGCTAG	1.65
TTAGGACTGGGGACTGGCTTAGTGCTA	-0.324
TTAGGTATGCTACTGCTTTAGTGCTAG	-0.473
TTAGGACTGGGTTTCGGATAGTGCTAG	2.87

Set 3
Target: Ras GTPase-activating protein-binding protein 1, full length (G3BP1, Homo sapiens, UniProt Q13283)
UniProt Q13283, sequence (whole entry, looked up): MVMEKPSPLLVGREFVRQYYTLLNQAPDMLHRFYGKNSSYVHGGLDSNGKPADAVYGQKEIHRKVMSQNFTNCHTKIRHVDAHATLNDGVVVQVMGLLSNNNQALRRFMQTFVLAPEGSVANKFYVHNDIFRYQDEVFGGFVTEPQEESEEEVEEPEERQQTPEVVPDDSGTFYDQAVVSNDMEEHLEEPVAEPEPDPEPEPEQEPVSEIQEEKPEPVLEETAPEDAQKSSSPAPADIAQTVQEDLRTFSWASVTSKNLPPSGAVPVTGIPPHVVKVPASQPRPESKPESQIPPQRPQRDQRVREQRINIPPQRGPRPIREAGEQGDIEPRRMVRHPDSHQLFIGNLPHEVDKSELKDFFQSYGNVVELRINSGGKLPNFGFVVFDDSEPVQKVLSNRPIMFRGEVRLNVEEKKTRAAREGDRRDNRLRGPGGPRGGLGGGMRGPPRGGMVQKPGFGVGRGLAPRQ
Method: RNA Bind-n-Seq
Form: RNA
Sample: in vitro
Tested at: 200 nM
Notes: whole 134-nt RNA, ends assumed
Together with: 150 mM KCl
Reference: input library
Direction: higher = stronger binding
Constant ends, left off below: GGGAGUUCUACAGUCCGACGAUC … UGGAAUUCUCGGGUGUCAAGG
Sequence	log2 enrichment
CAAGUCCUGUGCUACACAUCGUAUGUACCGAAUCGGAAAAAGGAAAAAAAGGUGGAAAGUAUUAUGUUACGCCGUUCGGAUCUGCACUUC	-1.04
GUCCUGUGCUACACAUCGUAUGUACCGAAUCGGGGUUUUUUUGGGGAGGGGAAAGGGGAAAGUAUUAUGUUACGCCGUUCGGAUCUGCAC	0.362
UCCUGUGCUACACAUCGUAUGUACCGAAUCGGGUUUGGGAAAAAAAGGGAAAAAAAGGGAAAGUAUUAUGUUACGCCGUUCGGAUCUGCA	-0.0699
UGCGCCAACCUAGGCUUUCUUCUUCCUCUCCUCUUUAUAGGCGGAGUCGAUCUCCCAAAAGGAGAAGGUAGGCCUUCAGUCAUUUGUGAU	-0.369
UUAUAAUUGAUGAUCAUCCUGAAGUAACAGUAAUUGAAGAUCCCCAGUCAAAUUUGAAUGAUGAUGGUUUUACUGAAGUGGUAUCCAAAA	-0.485
GCAGGAAGUAGAAACAAAUGGAAAUGCUUCGGAUAGUGGCAGGGGUGGGGGUUGCUAAGGAAAGGGUGGGAUGGGAGUGGGUAAAGAGUU	1.3
GGGCCCUGGUGGCAUGCGGGGAGGAAGAGGUGGCCUCAUGGAUCGUGGUGGUCCCGGUGGAAUGUUCAGAGGUGGCCGUGGUGGAGACAG	0.445

Further values, each from its own experiment
Substance	target	assay	system	conditions	how to read	quantity	value
PhoQ, residues 284 288 289 292 302 303 ALVSVA	PhoP, residues 12 14 15 18 19 QWHVF (Escherichia coli, UniProt P23836)	Sort-seq, item: YFP reporter	E. coli	PhoQ-PhoP variant library, together with: 10 µM Mg2+	reference: high Mg2+ state, higher = stronger signaling	fold induction	9.72

Repeated from above (set 1):
Variant	normalised enrichment score
L7H	-0.781
K5I	0.35
M2N	0.0606
